Measured values from different studies.
Each numbered part is a random draw from the data of one study; scales do not carry over between parts. Positions count from the first letter of the parent shown.

Set 1 — technique: RNA Bind-n-Seq; form: RNA; medium: in vitro; tested at: 365 nM; reference: no-protein control; direction: higher = stronger binding
Target: RNA binding protein fox-1 homolog 2, RRM domain, GST-SBP tag (RBFOX2, Homo sapiens, UniProt O43251-10, residues 100-194)
Setting: natural RNA segment, single round, ends assumed
Constant ends, left off below: GGGAGUUCUACAGUCCGACGAUC … UGGAAUUCUCGGGUGCCAA
Construct (chain): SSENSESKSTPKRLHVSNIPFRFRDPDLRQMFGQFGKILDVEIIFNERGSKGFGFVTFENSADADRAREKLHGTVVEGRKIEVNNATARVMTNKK
Oligonucleotide | RBNS enrichment (R)
UUGAACUCGAAGACAACUUAAAGUUUAGGGAAAGGAGAAUAUUUUUGGCAGAACAUCCGUCAGUACCUCAUGAAGGCUGGCUGCCUUUGUCUUUGAGAUAGACAUUGGAG | 0.432
CCCCUUCUACUACUUUCCCUCUCGCCCUGCCACCUAGUUCCACAUGGAACCAACAAGUUGAGUGCAUCCCUGUUGGGUGUUUUGUGUUGAGACUGGCUGAAAUGAGGAGA | 0.333
UGCUGUGUAUUUUGAUUUCCUGUGUAUGCAAAUGUGUGUAUUUACCAUUGUGUAGGGGGCUGUGUCUGAUCUUGGUGUUCAAAACAGAACUGUAUUUUUGCCUUUAAAAU | 1.34
UCACUCCUUUCUAGGUCUUAGUUUUCCCAUGUACACAGGGUCCUCUAGUUGUGAAAAUCACUCAAGAUUGAGAGAACAGGCUGGCAUAGUGGGAUAAAGGGCCCAAAAGC | 0.233
CAAUGGAUUACCAUCUUUAUUGCUGUAAUGUGUUAAGCAUUAUAUGCUAGUAGAAUCUAGUUUAAUUGUUUCAGGUGGAAAGUAUUCUUUGAGUUUCCAUAUUGAAUGUG | 0.39
AAUCGUGAACUGCUGCUGUAUGGCUAGACUUUGCCUAUUUACUCUGUUAUGCAAACAGUAAUUUUUCCCUAUGUUAUGAAGAGAGACAUAUUGGCUUGCUUUAAUUUACU | 0.874
UAAUUGUCUUCAGAUAUAUCAUCAUAACUGAUGCAAGAUAAGGUGAAAUCUUGCAUCUUCAAGAAAAGAUUAAAAUAGUAAAAGUAUCUUAAAUUUCCUGAUAUUUAUGU | 0.583
UCAGCCCAUGCCCAGCUGUCAGGAGAGAGGUGCAGGGAGGAAGGCCUUGUGCUGGGACAACCUCUCUCUUGCCUUACCUCAGAGAGGGACUAUGCCCUGACCCCUCCUUU | 0.517

Set 2 — technique: DHFR PCA, deep sequencing; medium: yeast; with: (+)-ABA 58 µM; reference: wild-type fitted maximum; direction: higher = stronger binding
Target: ABI1, truncated, D143A, DHFR fusion (Arabidopsis thaliana)
Setting: methotrexate growth selection, single substitutions
Starting sequence: PYL1, truncated, DHFR fusion (Arabidopsis thaliana); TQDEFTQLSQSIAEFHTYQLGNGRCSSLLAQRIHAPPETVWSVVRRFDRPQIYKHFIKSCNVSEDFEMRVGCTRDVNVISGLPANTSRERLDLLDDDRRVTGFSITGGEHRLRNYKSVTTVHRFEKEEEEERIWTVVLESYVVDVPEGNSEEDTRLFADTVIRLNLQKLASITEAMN
Change | relative binding score
E130V | 88.9%
R99Q | 81.3%
Q7N | 87.7%
F47Y | 38.4%
H55Q | 96.8%
F56Y | 64%
K58N | 70%
L94P | -5.54%
R163P | 0.103%
E147V | 82.2%
L156T | 84.9%
A35W | -7.46%
R90V | 80.2%
V142T | 78.5%
S117K | 3.83%
L94F | 96.4%
E174R | 59.7%

Set 3 — technique: protein-binding microarray; form: double-stranded DNA, one strand shown; medium: in vitro; tested at: not given; direction: higher = stronger binding
Target: Max-binding protein MNT, bHLH-zipper, MAX partner unstated (MNT, Homo sapiens, UniProt Q99583, residues 220-300)
Setting: k-mer, scored over probes, only values ≥0.25
Target sequence (chain): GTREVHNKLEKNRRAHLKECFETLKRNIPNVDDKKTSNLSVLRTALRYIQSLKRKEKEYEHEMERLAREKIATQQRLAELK
Oligonucleotide | E-score
CGTGCAAC | 0.402
ATGTGTTC | 0.259
AGTGCACG | 0.334
GAGTGCAC | 0.312
CACGTTGC | 0.444
CATGGTGG | 0.298
ATGGGGAG | 0.272
CGCCACGC | 0.411
CATCCTCG | 0.277
AGCGTGCC | 0.374
CCCACGAG | 0.424
CATGGCGC | 0.283
ACGCCGGA | 0.269
CCATGCGC | 0.418

Set 4 — target: CCNA1, cyclin fold, Cln2 fusion (human); technique: yeast growth competition, sequencing; medium: yeast; setting: weak parent motif; reference: not given; direction: higher = stronger binding
Starting sequence: GMNC docking peptide (human); KNAKRNLSSEFAN; partner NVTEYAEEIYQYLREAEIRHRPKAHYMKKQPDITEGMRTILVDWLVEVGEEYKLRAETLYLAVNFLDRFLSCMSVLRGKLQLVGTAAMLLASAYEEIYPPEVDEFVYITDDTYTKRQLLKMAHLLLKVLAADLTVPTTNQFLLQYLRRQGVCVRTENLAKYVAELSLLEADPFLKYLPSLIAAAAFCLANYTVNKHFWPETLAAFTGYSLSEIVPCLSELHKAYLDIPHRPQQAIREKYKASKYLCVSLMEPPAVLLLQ
Change | normalised enrichment score
E10Y | -0.277
A12S | 0.256
K4N | 0.0613
F11Q | 0.288
S9T | 0.704
S8Q | 0.951
A12M | 0.233
N6W | -0.152
E10P | 0.017
N2F | 0.875
S8D | 0.506
N2V | 0.288
F11T | 0.119
S8F | 0.482
F11H | 0.00479
A3M | 0.257
A12D | 0.123
S9Y | 0.812
R5P | -0.119

Set 5 — technique: universal PBM; form: double-stranded DNA, one strand shown; medium: in vitro; tested at: 600 nM; direction: higher = stronger binding
Target: Sal-like protein 4, full length isoform A (SALL4, Homo sapiens, UniProt Q9UJQ4, residues 1-1053)
UniProt Q9UJQ4, sequence (whole entry, looked up): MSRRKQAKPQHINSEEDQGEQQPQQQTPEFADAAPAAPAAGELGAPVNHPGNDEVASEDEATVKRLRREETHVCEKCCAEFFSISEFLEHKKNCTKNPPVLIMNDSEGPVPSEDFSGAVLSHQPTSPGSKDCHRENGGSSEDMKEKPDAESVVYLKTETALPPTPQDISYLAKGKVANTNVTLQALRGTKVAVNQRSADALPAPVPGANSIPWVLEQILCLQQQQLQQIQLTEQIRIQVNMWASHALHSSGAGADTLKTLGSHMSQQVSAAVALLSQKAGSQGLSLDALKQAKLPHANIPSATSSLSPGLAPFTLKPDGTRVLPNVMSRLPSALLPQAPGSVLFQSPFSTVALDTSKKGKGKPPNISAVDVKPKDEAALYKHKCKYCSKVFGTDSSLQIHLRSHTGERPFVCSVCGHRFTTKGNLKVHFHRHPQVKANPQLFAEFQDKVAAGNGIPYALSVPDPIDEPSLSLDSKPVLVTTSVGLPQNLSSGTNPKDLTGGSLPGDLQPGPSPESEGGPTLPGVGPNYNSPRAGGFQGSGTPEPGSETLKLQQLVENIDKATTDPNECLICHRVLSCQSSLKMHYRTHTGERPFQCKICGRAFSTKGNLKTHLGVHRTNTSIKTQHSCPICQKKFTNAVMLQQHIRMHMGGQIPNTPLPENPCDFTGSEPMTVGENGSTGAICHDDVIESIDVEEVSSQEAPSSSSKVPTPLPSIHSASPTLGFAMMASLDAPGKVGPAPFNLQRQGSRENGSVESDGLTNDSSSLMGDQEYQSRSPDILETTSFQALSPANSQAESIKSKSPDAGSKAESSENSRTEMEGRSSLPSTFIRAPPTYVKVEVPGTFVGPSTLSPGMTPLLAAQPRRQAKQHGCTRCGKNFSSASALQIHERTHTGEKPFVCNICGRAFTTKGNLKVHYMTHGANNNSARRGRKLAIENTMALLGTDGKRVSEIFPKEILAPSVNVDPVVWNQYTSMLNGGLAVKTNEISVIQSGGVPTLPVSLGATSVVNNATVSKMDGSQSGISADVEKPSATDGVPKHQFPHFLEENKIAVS
Setting: 8-mer, flanks averaged, mean of replicates
Oligonucleotide | E-score
TATTCGAA | 0.214
AGCTCGCA | -0.173
CTTTCCCC | -0.0909
ACTGGTGA | 0.00512
AAAGGATG | 0.149
ACACACAT | 0.215
AACTAACC | 0.108
CTCAAAGA | -0.0593
TCAGAACA | 0.1
CCTCCGGC | -0.398
GGTTAAAA | 0.144
AGGGGGTG | -0.372
AGGATACC | -0.127
AGCGAGAA | 0.096
GCACTGGA | -0.176
CAATGCTA | 0.151
GAATATCC | 0.16
ACCCCCGC | -0.332

Other studies, line by line
Substance | target | test | system | setting | how to read | quantity | result
PhoQ, residues 284 288 289 292 302 303 SSTLSG | PhoP, residues 12 14 15 18 19 AQCLL (Escherichia coli, UniProt P23836) | Sort-seq, measured: YFP reporter | E. coli | PhoQ-PhoP variant library, with: 10 µM Mg2+ | reference: high Mg2+ state, higher = stronger signaling | fold induction | 0.479

Repeated from above (set 3):
Oligonucleotide | E-score
ATGGGGAG | 0.272
CGTGCAAC | 0.402
ACGCCGGA | 0.269
CATGGTGG | 0.298
GAGTGCAC | 0.312
